Measurements collected from several papers.
“And” joins repeats or separate records; there may be more than shown. ± gives the spread as reported.

Compound | cell line | assay | setting | scale | quantity | result
COc1c(O)cc2c(c1O)C(=O)c1c(cc(C)c(O)c1OC)C2=O | HepaRG co-cultured with HK-2 | MTT | 33.33 µM, 24 h | relative to: untreated control | cell viability | 95.9 ± 12.1%
Cc1cc(C(=O)NC(C)(C)COc2cccc3c2C(N)=NS(=O)(=O)N3)cc(C)n1 | human peripheral blood lymphocytes | CBPI, concurrent micronucleus test | 100 µg/mL, 24 h | relative to: vehicle control | cytotoxicity | 2%
CC(C)(c1ccc(O)cc1)c1ccc(O)cc1 | HepG2 spheroids | flow cytometry, refers to: γH2AX | 24 h | – | lowest DNA double-strand break concentration | 40 µM
CC1CS(=O)(=O)CCN1/N=C/c1ccc([N+](=O)[O-])o1 (stereo not drawn) | PMA-differentiated THP-1 macrophages | – | 100 µM, 24 h | – | viability | 109 ± 9.6%
COc1cc2c(c(O)c1OC)C(=O)c1c(cc(C)c(O)c1OC)C2=O | HepaRG co-cultured with HK-2 | MTT | 33.33 µM, 48 h | relative to: untreated control | cell viability | 83.2 ± 5.53%
COc1cccc2c1C(=O)c1c(O)c3c(c(O)c1C2=O)C[C@@](O)(C(=O)CO)C[C@@H]3O[C@H]1C[C@H](N)[C@H](O)[C@H](C)O1 | THLE-2 transduced with P450 mix | metabolism-induced cytotoxicity | 48 h, 3D Matrigel spots | – | IC50 | 4.4 ± 0.5 µM
CC(=O)Nc1cccc(-n2c(=O)n(C3CC3)c(=O)c3c(Nc4ccc(I)cc4F)n(C)c(=O)c(C)c32)c1 | SW1417 | – | 0.1 µM, 72 h, unit not given | relative to: DMSO | viability | 0.386 and 0.857 and 0.894 and 0.485 and 1.03 and 0.325
COC(=O)c1cn(C)c2ccc(-c3cccnc3)cc12 | COS-7 | – | 10 µM, 24 h, 0.1% DMSO, unit not given | relative to: vehicle control | confluence | 0.92 ± 0.05
COc1cc2c(c(OC)c1OC)C(=O)c1c(cc(C)c(O)c1OC)C2=O | HepaRG co-cultured with HK-2 | MTT | 16.67 µM, 24 h | relative to: untreated control | cell viability | 108 ± 19%
CC1=CC[C@H]2[C@@H]([C@@H]1CC[C@H]1[C@]3(C)CC[C@H](O)C(C)(C)O[C@H]3CC[C@]1(C)O)C(C)(C)CC[C@]2(C)O | HEK293 MRP7 transfected | cell viability, MTT | 72 h | – | IC50 | > 50 µM
Cc1cc(O)c2c(c1)C(=O)c1cc(O)cc(O)c1C2=O | HepaRG co-cultured with HK-2 | MTT | 16.67 µM, 48 h | relative to: untreated control | cell viability | 66.9 ± 6.85%
O=C(NC[C@H](O)CO)c1ccncc1Nc1ccc(I)cc1F | A-431 | WST-8 | 1 µM, 25 h, added: IFN-γ | – | viability | 115%
CCC(=O)NS(=O)(=O)c1ccc(-c2c(-c3ccccc3)noc2C)cc1 | COS-7 | – | 100 µM, 24 h, 0.1% DMSO, unit not given | relative to: control | apoptosis | 0.84 ± 0.15
COc1cc2ncnc(Nc3ccc(Oc4ccccc4)c(C)c3C)c2cc1OC.Cl | COLO 205 (BRAF V600E) | resazurin | 1 µM, 72 h, unit not given, added: trametinib 1 µM | relative to: DMSO | viability | 0.929 and 0.722
[Cl-].[Cl-].[Ru+2].c1cnc2c(c1)c1nc[nH]c1c1cccnc12.c1cnc2c(c1)ccc1cccnc12.c1cnc2c(c1)ccc1cccnc12 | SK-MEL-28 | – | concentration not given, normoxia, added: green light 523 nm | – | photocytotoxicity | inactive
COc1cc2ncnc(Nc3ccc(Oc4ccccc4)cc3C)c2cc1OC.O=C(O)C(F)(F)F | COLO 205 (BRAF V600E) | resazurin | 0.1 µM, 72 h, added: trametinib 0 nM | – | viability | 0.871 fraction of control
COc1c(O[C@@H]2O[C@H](CO)[C@@H](O)[C@H](O)[C@H]2O)c(C)cc2c1C(=O)c1c(O)cccc1C2=O | HepaRG co-cultured with HK-2 | MTT | 133.33 µM, 48 h | relative to: untreated control | cell viability | 48 ± 2.45%

Compound | cell line | assay | setting | scale | quantity | result
CCN(CC)CCCC(C)Nc1ccnc2cc(Cl)ccc12 (stereo not drawn) | hiPSC-derived ventricular cardiomyocytes | IKr current, perforated patch clamp | 5 µM | – | inhibition | 60.5% and 73.4% and 69% and 48.1%
CCCCCCCCC(=O)c1cc(O)c(O)c(O)c1 | COS-7 | WST-8 | 10 µM, 24 h, 0.1% DMSO, unit not given | relative to: vehicle control | metabolic activity | 0.58 ± 0.05
CCN(CCO)CCCC(C)Nc1ccnc2cc(Cl)ccc12 (stereo not drawn) | hiPSC-derived ventricular cardiomyocytes | IKr current | 10 µM | – | inhibition | 76.1%
COC[C@@H](CC(C)C)NC(=O)c1ccc(C)c(C)c1 | primary human lymphocytes | – | 225 µg/mL, 4 (unit not given), with S9 | – | cells with structural aberrations | 0.5%
COc1cc2nc(NCCCN(C)C)nc(NC3CCN(Cc4ccccc4)CC3)c2cc1OC | MV4-11 | – | 10 µM | – | cytotoxicity | 100%
CCN(CC)Cc1cc(Nc2ccnc3cc(Cl)ccc23)ccc1O | COS-7 | – | 30 µM, 24 h, 0.1% DMSO, unit not given | relative to: vehicle control | apoptotic cells | 3.6 ± 0.99
CC(C)(C)NC(=O)C[C@H](NC(=O)C(=O)c1c[nH]c2ccccc12)C(=O)NCc1cccc(B(O)O)c1 | human PBMCs | cytotoxicity | 72 h, 0.5% DMSO | – | EC50 | > 50 µM
Cc1cc(O)c2c(c1)C(=O)c1cccc(O)c1C2=O | HepaRG co-cultured with HK-2 | MTT | 66.67 µM, 24 h | relative to: untreated control | cell viability | 91.7 ± 8.43%
COc1cccc(-c2ccc(NC(=O)C3=C(C(=O)O)CCC3)c(F)c2)c1 | COS-7 | – | 10 µM, 24 h, 0.1% DMSO, unit not given | relative to: vehicle control | confluence | 0.91 ± 0.03
COc1c(O)c(C)cc2c1C(=O)c1c(cc(O)c(O)c1O)C2=O | HepaRG co-cultured with HK-2 | MTT | 16.67 µM, 24 h | relative to: untreated control | cell viability | 66.7 ± 10.4%
COc1cccc2c1C(=O)c1c(O)c3c(c(O)c1C2=O)C[C@@](O)(C(=O)CO)C[C@@H]3O[C@H]1C[C@H](N)[C@H](O)[C@H](C)O1 | COS-7 | – | 100 µM, 24 h, 0.1% DMSO, unit not given | relative to: control | confluence | 0.73 ± 0.11
O=C(O)c1cc(O)c2c(c1)C(=O)c1cccc(O)c1C2=O | HepaRG co-cultured with HK-2 | MTT | 133.33 µM, 48 h | relative to: untreated control | cell viability | 8.87 ± 2.02%
CN1C(C(=O)Nc2ccccn2)=C(O)c2sc(Cl)cc2S1(=O)=O | COS-7 | WST-8 | 100 µM, 24 h, 0.1% DMSO, unit not given | relative to: control | metabolic activity | 0.96 ± 0.03
Cc1cc(C(=O)NOCCO)c(Nc2ccc(I)cc2F)n(C)c1=O | A-431 | WST-8 | 1 µM, 25 h, added: IFN-γ | – | viability | 112%
CC(C)n1c(/C=C/C(O)CC(O)CC(=O)O)c(-c2ccc(F)cc2)c2ccccc21 (stereo not drawn) | COS-7 | – | 10 µM, 24 h, 0.1% DMSO, unit not given | relative to: vehicle control | confluence | 0.8 ± 0.09
O=C(O[C@@H]1COC(=O)c2cc(O)c(O)c(O)c2-c2c(cc(O)c(O)c2O)C(=O)O[C@H]1[C@@H]1OC(=O)c2cc(O)c(O)c(O)c2-c2c(O)c(O)c(O)c3c2C(=O)O[C@H]1[C@@H]3O)c1cc(O)c(O)c(O)c1 | human gingival fibroblasts | cytotoxicity | 48 h | – | IC50 | > 100 µg/mL
